Results gathered from unrelated publications.
A part holds a random share of what one study measured.

Sample 1
Target: Histone acetyltransferase KAT6A, winged helix 2, GST fusion (KAT6A, Homo sapiens, UniProt Q92794, residues 85-181)
Method: protein binding microarray
Form: double-stranded DNA, one strand shown
Matrix: in vitro
Tested at: not given
Notes: 8-mer, flanks averaged, mean of 2 arrays, mostly near background
Reference: not given
Direction: higher = stronger binding
Residues (chain): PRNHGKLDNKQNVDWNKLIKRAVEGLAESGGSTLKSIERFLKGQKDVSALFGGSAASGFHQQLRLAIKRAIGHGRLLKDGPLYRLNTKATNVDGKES
| Sequence | E-score |
| --- | --- |
| GATACGTA | -0.174 |
| CACTCTGC | 0.0991 |
| CCGGCGTA | 0.0335 |
| CTCGCGTC | 0.143 |
| CTTAGAAC | 0.0774 |
| CGGACAGC | 0.0531 |
| GCTCAAGC | 0.11 |
| CTCTTCAA | -0.0322 |
| AGATTAGG | -0.105 |
| GCCTAACA | -0.0202 |
| GAACGAAC | 0.00635 |
| GGAGGCAC | 0.117 |
| ATACTGGG | -0.106 |
| CCTCGTAA | 0.0763 |
| AAAGGTAG | -0.108 |
| CAGCATTA | -0.0444 |

Sample 2
Target: Sal-like protein 4, full length isoform A (SALL4, Homo sapiens, UniProt Q9UJQ4, residues 1-1053)
UniProt Q9UJQ4, sequence (whole entry, looked up): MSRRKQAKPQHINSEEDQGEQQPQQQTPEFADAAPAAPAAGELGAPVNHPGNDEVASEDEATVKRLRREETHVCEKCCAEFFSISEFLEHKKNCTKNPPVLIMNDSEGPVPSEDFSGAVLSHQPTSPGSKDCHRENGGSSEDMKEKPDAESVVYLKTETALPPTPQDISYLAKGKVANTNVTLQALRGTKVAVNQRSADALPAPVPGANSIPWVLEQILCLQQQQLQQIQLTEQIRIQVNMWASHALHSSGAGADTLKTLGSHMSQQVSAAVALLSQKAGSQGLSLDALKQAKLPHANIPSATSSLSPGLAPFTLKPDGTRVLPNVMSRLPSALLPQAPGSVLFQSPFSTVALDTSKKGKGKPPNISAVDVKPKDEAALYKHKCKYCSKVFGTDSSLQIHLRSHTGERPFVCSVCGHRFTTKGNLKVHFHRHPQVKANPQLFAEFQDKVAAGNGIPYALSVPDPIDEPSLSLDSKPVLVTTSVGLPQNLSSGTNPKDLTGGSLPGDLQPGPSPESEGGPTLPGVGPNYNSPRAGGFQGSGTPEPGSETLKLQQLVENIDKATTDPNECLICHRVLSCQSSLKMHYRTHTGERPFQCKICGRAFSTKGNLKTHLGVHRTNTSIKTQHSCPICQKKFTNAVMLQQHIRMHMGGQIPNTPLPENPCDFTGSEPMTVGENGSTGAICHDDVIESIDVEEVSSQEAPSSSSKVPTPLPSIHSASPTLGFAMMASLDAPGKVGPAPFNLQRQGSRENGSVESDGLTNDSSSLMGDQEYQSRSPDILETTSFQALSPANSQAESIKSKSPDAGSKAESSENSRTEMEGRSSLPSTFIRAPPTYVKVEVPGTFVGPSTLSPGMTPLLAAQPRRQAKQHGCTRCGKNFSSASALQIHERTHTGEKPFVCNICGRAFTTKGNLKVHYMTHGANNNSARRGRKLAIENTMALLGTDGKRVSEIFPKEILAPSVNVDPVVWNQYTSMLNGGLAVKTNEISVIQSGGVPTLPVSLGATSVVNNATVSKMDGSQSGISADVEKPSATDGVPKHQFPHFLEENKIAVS
Method: universal PBM
Form: double-stranded DNA, one strand shown
Matrix: in vitro
Tested at: 600 nM
Notes: 8-mer, flanks averaged, mean of replicates
Direction: higher = stronger binding
| Sequence | E-score |
| --- | --- |
| AAGCAATC | 0.146 |
| CTGCCCTA | -0.173 |
| GAACATAA | 0.291 |
| CAGACGGA | -0.153 |
| ATTGCTTA | 0.318 |
| ATAGAGAT | 0.251 |
| GTGCATGA | 0.145 |
| CGACGGAA | -0.136 |
| ATCCAACA | 0.111 |
| GGCGATAA | -0.0105 |
| GATAACGA | 0.222 |
| CTGGAGGA | -0.0467 |

Sample 3
Target: Centromere-binding protein 1, full length, N-terminal tag (CBF1, Saccharomyces cerevisiae, UniProt P17106, residues 1-351)
UniProt P17106, sequence (whole entry, looked up): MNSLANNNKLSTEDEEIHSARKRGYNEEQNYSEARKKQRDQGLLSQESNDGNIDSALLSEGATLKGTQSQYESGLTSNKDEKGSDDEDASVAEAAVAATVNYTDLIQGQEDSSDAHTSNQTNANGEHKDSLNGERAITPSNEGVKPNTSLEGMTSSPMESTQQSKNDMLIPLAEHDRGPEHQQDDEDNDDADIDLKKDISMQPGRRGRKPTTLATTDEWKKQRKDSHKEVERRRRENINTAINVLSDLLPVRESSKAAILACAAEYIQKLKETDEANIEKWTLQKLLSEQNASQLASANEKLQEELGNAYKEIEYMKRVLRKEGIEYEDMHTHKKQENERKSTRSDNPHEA
Method: protein-binding microarray
Form: double-stranded DNA, one strand shown
Matrix: in vitro
Tested at: 0.8 µM
Notes: whole 60-bp probe, no competitor
Direction: higher = stronger binding
| Sequence | fluorescence intensity [a.u.] |
| --- | --- |
| CTACCCTCCCCCATGCATGTGGAGTCATAGGAGTTCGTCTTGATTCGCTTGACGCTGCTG | 528 |
| GAACAACCAGCCGCAGACGTGAGTTGATCTTTTTAGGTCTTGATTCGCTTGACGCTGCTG | 480 |
| CTAATTTAAGTTAATGACGTCATGGTGGTATAGTTCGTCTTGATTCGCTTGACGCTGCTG | 548 |
| GAATTAACTTTATTGCACGTTATTGCTTCCACATAGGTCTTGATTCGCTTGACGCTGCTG | 647 |
| GAAGACAGAGATGTGCATGTTGACAACGCAGGCTAGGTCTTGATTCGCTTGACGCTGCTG | 496 |
| CTAACCGTTCCACGTGACTAGTCCAAGGATTTTTTCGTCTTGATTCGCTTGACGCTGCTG | 10800 |
| CTAGCTTTGCATCCTTACGTGCGTGAGATGGCATTCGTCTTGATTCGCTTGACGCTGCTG | 503 |
| TGTACGAAGCTATGAAGCACCACTATAGTAGTTAGGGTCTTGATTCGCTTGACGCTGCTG | 515 |
| CTAAAGGAAGAGGACCACACCATGCATTTGTGTTTCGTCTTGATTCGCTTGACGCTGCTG | 492 |
| CTATAGCAATGTCAGCATCAGAGATACCTTCCATTCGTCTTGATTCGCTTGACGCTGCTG | 482 |
| CTAAGGGTCATTATTCACGATATGTTCAACTGTTTCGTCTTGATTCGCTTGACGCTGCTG | 540 |

Sample 4
Target: Ras GTPase-activating protein-binding protein 1, full length (G3BP1, Homo sapiens, UniProt Q13283)
UniProt Q13283, sequence (whole entry, looked up): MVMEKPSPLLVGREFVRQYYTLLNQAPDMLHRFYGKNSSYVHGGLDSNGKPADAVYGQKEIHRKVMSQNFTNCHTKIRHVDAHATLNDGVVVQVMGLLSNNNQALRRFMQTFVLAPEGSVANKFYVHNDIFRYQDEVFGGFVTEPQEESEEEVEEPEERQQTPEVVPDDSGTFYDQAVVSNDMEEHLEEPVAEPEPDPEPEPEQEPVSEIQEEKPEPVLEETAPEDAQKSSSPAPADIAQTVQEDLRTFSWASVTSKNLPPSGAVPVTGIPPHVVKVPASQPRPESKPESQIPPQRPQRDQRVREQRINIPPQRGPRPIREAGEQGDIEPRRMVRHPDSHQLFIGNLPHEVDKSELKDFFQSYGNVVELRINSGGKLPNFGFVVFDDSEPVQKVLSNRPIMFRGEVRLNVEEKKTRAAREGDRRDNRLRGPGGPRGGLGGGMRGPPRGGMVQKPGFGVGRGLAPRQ
Method: RNA Bind-n-Seq
Form: RNA
Matrix: in vitro
Tested at: 200 nM
Notes: whole 134-nt RNA, ends assumed
Together with: 150 mM KCl
Reference: input library
Direction: higher = stronger binding
| Sequence | log2 enrichment |
| --- | --- |
| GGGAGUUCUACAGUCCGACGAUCACCAUGCAAAUGGGCAUCUUUGGGAAGUGGGGCAAGGGGGGGAUAGGGAGGGGGGUAACACUUUGGGAACAGGUGGUCCCAGGUCGUUUCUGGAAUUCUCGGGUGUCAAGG | 0.761 |
| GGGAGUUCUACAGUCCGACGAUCUCAAGUCCUGUGCUACACAUCGUAUGUACCGAAUCGGGCCGGGCCGGGCCGGGGAAAGUAUUAUGUUACGCCGUUCGGAUCUGCACUUCCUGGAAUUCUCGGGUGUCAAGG | 0.192 |
| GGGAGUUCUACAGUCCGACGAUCUAACUUUAGAGGAGGAUCUGAUGGAUAUGGCUGUGGACGUGGAUUUGGGGAUGGCUAUAAUGGGUAUGGAGGAGGACCUGGAGGUGGCAAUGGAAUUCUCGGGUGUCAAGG | 0.678 |
| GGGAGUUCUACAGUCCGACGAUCUCCUGUGCUACACAUCGUAUGUACCGAAUCGGUUUUUUGGGGUUUUUUGGGUUUUUUGGAAAGUAUUAUGUUACGCCGUUCGGAUCUGCAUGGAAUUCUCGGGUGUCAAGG | -0.446 |
| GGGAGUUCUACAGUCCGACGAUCUUGUGGUAUUUUAUUUACUUAUUUUUUUAAAUCUUCCAUUACAGCCAUGCCUUUCUUGGACAUCCAGAAAAGGUUCGGCCUUAACAUAGAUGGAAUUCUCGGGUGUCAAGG | -0.459 |

Sample 5
Target: RING finger protein unkempt homolog, zinc fingers 1-6, GST-SBP tag (UNK, Homo sapiens, UniProt Q9C0B0, residues 30-357)
UniProt Q9C0B0, sequence (30-357, looked up): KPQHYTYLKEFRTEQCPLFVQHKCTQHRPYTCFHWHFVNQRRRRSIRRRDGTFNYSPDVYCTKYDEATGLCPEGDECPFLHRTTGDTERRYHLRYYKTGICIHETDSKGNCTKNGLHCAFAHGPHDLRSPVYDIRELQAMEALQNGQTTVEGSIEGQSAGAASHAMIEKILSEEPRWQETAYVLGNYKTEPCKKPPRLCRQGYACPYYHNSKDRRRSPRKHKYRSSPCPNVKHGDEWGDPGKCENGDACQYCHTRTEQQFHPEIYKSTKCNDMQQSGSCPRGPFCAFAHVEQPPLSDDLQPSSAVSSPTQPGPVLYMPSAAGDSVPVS
Method: RNA Bind-n-Seq
Form: RNA
Matrix: in vitro
Tested at: not given
Notes: RNA with constant flanks, human and mouse sites, ends assumed
Reference: input RNA pool
Direction: higher = stronger binding
| Sequence | bound/input enrichment |
| --- | --- |
| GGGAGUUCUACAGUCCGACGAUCGAGAAGGUUCUGUCUCCUUUACGCAGUCCUCCCCUUCUUGGAUCUGAGUCCCCAUAUGAAGACUUCCUGAGUGCUGAUAGCAAGGUUCUUGGCAGACGUUCCGAAAGCCCCUUUGAAGGGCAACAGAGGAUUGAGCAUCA | 0.126 ratio |
| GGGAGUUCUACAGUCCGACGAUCCUGCAGGAGAAAACCGAGUGCCUAAUACAGCAAUAUGAAGCUGUUAGCCUGCUUAACUCAGAGCGCUAUGCUCGCCUAGAGCGAGCACAGGUCUUAGUGAACCAGUUUUGGGAAACAUACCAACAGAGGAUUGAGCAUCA | 0.266 ratio |
| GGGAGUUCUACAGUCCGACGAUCUCCGAGUCUUAGGAGGACGAACAUUCAAAGGACAGAUUCCAAUGUGGUGUGCCGUGCACAUCGGGAGCGGCUGGGGUUUGCACUUCGAGAUUUCUUCUAUAUAAUUUUUUUUUUUAAACGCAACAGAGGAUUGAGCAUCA | 4.01 ratio |
| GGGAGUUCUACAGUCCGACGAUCUUACAGAAACCCAGUGUGGCUCAUUUUGGAUCUGAAAAAUCAAACCUGUACAAGUUUACUGCUAGUGCCUCACAUACAGAGAGAAAACUGAAACAGGCAAUAAACUAUUCAAAAAGUUUACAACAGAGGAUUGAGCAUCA | 0.157 ratio |
| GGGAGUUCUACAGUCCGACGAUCUCUGCACUUGUUUUAAGAGCCCAAGCCUCUGAGGUCUUACUUGAAGAGUUACAACAGAGCUUUUCCCAAGCAAAGAGGGACGUUCAGGAGCAGAUGGCGGUGCUGAUGCAGUCACGUGAACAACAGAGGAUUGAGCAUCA | 0.183 ratio |
| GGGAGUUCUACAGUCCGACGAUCAAGUCCUCAUUGACAAUUCAGUUUGUUGAAGGCCAAUUUGUUGAUUCCUACGAUCCAACCAUAGAGAACACGUUCACCAAGUUGAUCACGGUAAAUGGUCAAGAGUAUCAUCUUCAGCUUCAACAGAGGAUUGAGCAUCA | 0.154 ratio |

Sample 6
Target: Interferon regulatory factor 7, full length, phosphomimetic (IRF7, Homo sapiens, UniProt Q92985, residues 1-503, S471D/S472D/S475D/S476D/S477D/S483D/S484D/S487D)
Method: protein-binding microarray
Form: double-stranded DNA, one strand shown
Matrix: in vitro
Tested at: 2200 nM top
Notes: 60-bp whole probe
Together with: salmon DNA 0.4 mg/ml
Reference: random background probes
Direction: higher = stronger binding
All sequences stand within: GCCTAGCAC … GTCTTGATTCGCTTGACGCTGCTG
Construct (chain): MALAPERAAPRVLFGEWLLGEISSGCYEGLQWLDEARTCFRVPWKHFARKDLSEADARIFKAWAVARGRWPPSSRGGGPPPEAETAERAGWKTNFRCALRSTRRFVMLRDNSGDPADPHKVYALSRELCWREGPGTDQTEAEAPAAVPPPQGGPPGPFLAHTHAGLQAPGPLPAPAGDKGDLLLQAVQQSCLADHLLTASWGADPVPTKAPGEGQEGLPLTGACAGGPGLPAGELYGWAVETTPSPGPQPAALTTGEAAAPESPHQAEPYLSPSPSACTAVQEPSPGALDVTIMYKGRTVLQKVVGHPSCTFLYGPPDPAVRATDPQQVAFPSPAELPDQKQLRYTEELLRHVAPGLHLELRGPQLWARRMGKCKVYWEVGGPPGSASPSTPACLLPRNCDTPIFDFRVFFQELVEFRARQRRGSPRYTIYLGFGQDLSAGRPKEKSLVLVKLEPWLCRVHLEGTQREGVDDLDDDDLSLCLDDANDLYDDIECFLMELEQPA
| Sequence | fitted relative affinity [z-score] |
| --- | --- |
| TTAGGTTTCGACTTTCCGTTAGTGCTA | 7.77 |
| TTAGGGTTCGGTTCCGGTTAGTGCTAG | 2.21 |
| GACGGTCTCCTTCTCCTCACGTGCTAG | 1.03 |
| TTAGGAGTGCTTCTCCTTTAGTGCTAG | 0.32 |
| TTAGGACTGGACTATCGGTTAGTGCTA | -0.28 |
| TTAGATCTCAGTTTCAATTAGTGCTAG | 0.77 |
| TCACATCTGTCATGTTTGACTGTGCTA | 1.35 |
| AACGATATCAGTATCGAGACGTGCTAG | 0.277 |
| GGCGATTTCGGGTTTCGAGACGTGCTA | 5.25 |
| TTCGGTCTCCTTTTCCTTTAGTGCTAG | 2.91 |
